Assay results of several laboratories.
Each numbered part is a random draw from the data of one study; scales do not carry over between parts.

Study 1 — method: protein binding microarray; form: double-stranded DNA, one strand shown; sample: in vitro; concentration: not given; relative to: not given; reading: higher = stronger binding
Target: Histone acetyltransferase KAT6A, winged helix 1, GST fusion (KAT6A, Homo sapiens, UniProt Q92794, residues 1-85)
Setting: 8-mer, flanks averaged, mean of 2 arrays, mostly near background
Residues (chain): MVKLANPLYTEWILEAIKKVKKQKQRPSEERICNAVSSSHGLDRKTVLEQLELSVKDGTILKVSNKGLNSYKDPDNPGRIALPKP
Strand	E-score
AAGCAAAG	-0.0637
ACCAAGCG	0.205
CACGCCTG	-0.108

Study 2 — method: protein-binding microarray; form: double-stranded DNA, one strand shown; sample: in vitro; concentration: 250 nM; setting: 60-bp whole probe; together with: salmon DNA 0.4 mg/ml; relative to: random background probes; reading: higher = stronger binding
Target: Interferon regulatory factor 7, full length, phosphomimetic (IRF7, Homo sapiens, UniProt Q92985, residues 1-503, S101K/S471D/S472D/S475D/S476D/S477D/S483D/S484D/S487D)
UniProt Q92985, sequence (whole entry, unmodified, looked up): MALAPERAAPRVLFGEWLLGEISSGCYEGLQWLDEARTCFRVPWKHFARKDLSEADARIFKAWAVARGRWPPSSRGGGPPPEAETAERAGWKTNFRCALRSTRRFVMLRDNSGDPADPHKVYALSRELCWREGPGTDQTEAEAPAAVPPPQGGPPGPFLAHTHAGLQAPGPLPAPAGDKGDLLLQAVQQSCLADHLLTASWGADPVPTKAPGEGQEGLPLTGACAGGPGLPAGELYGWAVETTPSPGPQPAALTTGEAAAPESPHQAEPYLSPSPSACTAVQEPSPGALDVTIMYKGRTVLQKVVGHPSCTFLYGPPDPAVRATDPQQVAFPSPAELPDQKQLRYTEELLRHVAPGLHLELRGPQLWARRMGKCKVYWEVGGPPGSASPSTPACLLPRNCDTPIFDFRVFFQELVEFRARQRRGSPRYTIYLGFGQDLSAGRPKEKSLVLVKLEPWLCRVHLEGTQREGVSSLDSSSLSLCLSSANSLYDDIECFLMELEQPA
Strand	log fluorescence
GCCTAGCACTTAGGTATCCTTCTCTTTTAGTGCTAGGTCTTGATTCGCTTGACGCTGCTG	0.637 z-score
GCCTAGCACGACGAATTCGGGTATCGAGACGTGCTAGTCTTGATTCGCTTGACGCTGCTG	0.481 z-score
GCCTAGCACTCAGCTACACATCTCACACTGTGCTAGGTCTTGATTCGCTTGACGCTGCTG	-0.129 z-score

Study 3 — method: universal PBM; form: double-stranded DNA, one strand shown; sample: in vitro; concentration: 600 nM; reading: higher = stronger binding
Target: Sal-like protein 4, full length isoform A (SALL4, Homo sapiens, UniProt Q9UJQ4, residues 1-1053)
UniProt Q9UJQ4, sequence (whole entry, looked up): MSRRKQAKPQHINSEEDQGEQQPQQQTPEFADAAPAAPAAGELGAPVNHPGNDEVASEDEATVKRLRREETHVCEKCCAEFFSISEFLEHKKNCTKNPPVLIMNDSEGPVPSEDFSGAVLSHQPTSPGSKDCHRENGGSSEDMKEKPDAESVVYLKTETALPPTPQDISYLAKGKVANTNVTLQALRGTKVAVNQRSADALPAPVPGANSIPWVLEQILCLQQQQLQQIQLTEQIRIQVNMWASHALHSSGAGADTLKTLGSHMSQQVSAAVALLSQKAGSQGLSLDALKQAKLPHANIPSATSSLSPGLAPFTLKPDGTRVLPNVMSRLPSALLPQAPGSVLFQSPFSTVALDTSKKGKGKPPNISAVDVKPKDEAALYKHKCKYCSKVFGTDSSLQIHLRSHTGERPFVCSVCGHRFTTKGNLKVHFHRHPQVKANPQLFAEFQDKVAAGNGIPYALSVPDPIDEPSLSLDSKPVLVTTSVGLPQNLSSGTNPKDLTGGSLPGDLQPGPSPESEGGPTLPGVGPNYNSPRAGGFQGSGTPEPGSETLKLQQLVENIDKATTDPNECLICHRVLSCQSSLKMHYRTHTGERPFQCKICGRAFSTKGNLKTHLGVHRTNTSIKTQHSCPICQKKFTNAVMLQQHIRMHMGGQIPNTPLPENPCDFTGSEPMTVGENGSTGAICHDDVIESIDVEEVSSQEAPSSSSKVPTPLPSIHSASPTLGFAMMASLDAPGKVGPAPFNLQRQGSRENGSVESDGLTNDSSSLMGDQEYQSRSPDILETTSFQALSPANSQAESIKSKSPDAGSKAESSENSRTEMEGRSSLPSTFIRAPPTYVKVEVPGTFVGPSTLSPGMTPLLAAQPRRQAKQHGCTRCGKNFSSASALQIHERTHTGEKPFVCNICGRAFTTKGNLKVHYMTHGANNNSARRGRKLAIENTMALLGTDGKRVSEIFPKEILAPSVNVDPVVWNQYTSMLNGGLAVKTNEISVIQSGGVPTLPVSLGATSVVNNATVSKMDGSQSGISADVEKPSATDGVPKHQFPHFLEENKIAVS
Setting: 8-mer, flanks averaged, mean of replicates
Strand	E-score
ATCTTAAG	0.124
AATCTCGC	0.127
TCCTACCA	-0.205

Single results of other studies
Molecule	target	test	system	conditions	how to read	measurement	result
PhoQ, residues 284 288 289 292 302 303 SSCCRF	PhoP, residues 12 14 15 18 19 IFFTR (Escherichia coli, UniProt P23836)	Sort-seq, refers to: YFP reporter	E. coli	PhoQ-PhoP variant library, together with: 10 µM Mg2+	relative to: high Mg2+ state, higher = stronger signaling	fold induction	2.82

For quick reference, copied from above (study 3):
Strand	E-score
ATCTTAAG	0.124
